Results from different studies.
Lines come from different studies, so protocols differ. Several values in a cell are separate wells, animals, samples, runs or records.

Cc1ncsc1-c1ccc(C(C)NC(=O)C2CC(O)CN2C(=O)C(NC(=O)CCCCCCCCCCN2CCCC(Nc3ncc(Cl)c(Nc4ccccc4S(=O)(=O)C(C)C)n3)C2)C(C)(C)C)cc1 (stereo not shown)  log2 fold change (22Rv1; RNA-seq, item: TFEB mRNA; concentration not given; baseline: DMSO): -2.58
CN1CCCNC(=O)c2cccc(c2)C(=O)NCCCN(C)CCCNc2cccc3c2C(=O)c2cccc(c2C3=O)NCCC1  log2 fold change (SAS; RNA-Seq, item: B3GAT3 mRNA; 1 µM, 6 h; baseline: untreated cells): -0.891
CNS(=O)(=O)Nc1nccc(Cc2c(C)c3ccc(Oc4ncccc4F)cc3oc2=O)c1F  IC50 (SK-MEL-1; cell viability; 7 days): 2.14 nM
Cc1cccc(-c2cccc(C)n2)n1.Cc1cccc(-c2cccc(C)n2)n1.F[P-](F)(F)(F)(F)F.F[P-](F)(F)(F)(F)F.[Ru+2].c1ccc2c(c1)Cc1cc(-c3nc4c5cccnc5c5ncccc5c4[nH]3)ccc1-2  phototoxicity index (SK-MEL-28; normoxia, together with: blue light 453 nm, 100 J/cm2; baseline: dark over light EC50): 6
COc1ccccc1-c1ccncc1C(=O)Nc1nnc(OCc2ccc(Cl)cc2)s1  colony survival (MDA-MB-436 BRCA1-mutant; 0.1875 µM, single replicate; baseline: untreated): 78.6% and 67.3% and 72.3%
Cn1ncc2cc(-c3cncc(Cl)c3N3CCC4(CCNC4=O)CC3)ccc21  log2 fold change (LS174T; gene expression, microarray, item: NFE2L2 mRNA; concentration not given, 4 h; baseline: untreated cells): -1.24
CC(C)c1ccc(N(C)c2ccc3c(c2)OCC[C@H]3CNc2cnccc2C(=O)O)cc1  IC50 (SK-HEP1; cell growth or viability, ATP luminescence; 7 days): ≥ 10000 nM
COC1CN([C@H]2CC[C@H]([C@@]3(C)Oc4c(Cl)cc(C(=O)NCc5c(SC)cc(C)[nH]c5=O)c(C)c4O3)CC2)C1  log2 fold change (RNA-seq, item: SLC41A2; human, whole blood; dose not given, 24 h; baseline: pretreatment baseline): 1.41
CO[C@@H]1[C@@H](OC(N)=O)[C@@H](O)[C@H](Oc2ccc3c(O)c(NC(=O)c4ccc(O)c(CC=C(C)C)c4)c(=O)oc3c2C)OC1(C)C  colony survival (DLD-1 BRCA2-/-; 50 µM, replicate A; baseline: untreated): 28.8%
CCN(CC)CC(=O)Nc1cccc(-n2cc(-c3ccc4ccc(-c5cn(-c6cccc(NC(=O)CN(CC)CC)c6)nn5)cc4c3)nn2)c1  fold regulation (RCC4; PCR angiogenesis array, item: FLT1; 5 x IC50, 6 h, normoxia; baseline: untreated): 1.06

Excerpt of the above:
CC(C)c1ccc(N(C)c2ccc3c(c2)OCC[C@H]3CNc2cnccc2C(=O)O)cc1  IC50 (SK-HEP1; cell growth or viability, ATP luminescence; 7 days): ≥ 10000 nM
